# Results collected from several papers.
# Numbered parts are unrelated; each lists some results of a single study.

# Sample 1 — technique: protein-binding microarray; form: double-stranded DNA, one strand shown; medium: in vitro; tested at: 940 nM top; notes: 60-bp whole probe; together with: salmon DNA 0.4 mg/ml; reference: random background probes; reading: higher = stronger binding
# Target: Interferon regulatory factor 5, full length, phosphomimetic (IRF5, Homo sapiens, UniProt Q13568-2, residues 1-514, S451D/S453D/S456D/S462D)
Strand,fitted relative affinity [z-score]
GCCTAGCACGACGGACTGGGGTATCGAGACGTGCTAGTCTTGATTCGCTTGACGCTGCTG,0.743
GCCTAGCACGACAGACTGGACTTTCGGGACGTGCTAGTCTTGATTCGCTTGACGCTGCTG,0.323
GCCTAGCACGACGGTATCTGTATCGGGACGTGCTAGGTCTTGATTCGCTTGACGCTGCTG,2.31
GCCTAGCACAGTATGTTCACTATTTAAGAGTGCTAGGTCTTGATTCGCTTGACGCTGCTG,-0.0996

# Sample 2 — technique: universal PBM; form: double-stranded DNA, one strand shown; medium: in vitro; tested at: 600 nM; reading: higher = stronger binding
# Target: Sal-like protein 4, full length isoform A (SALL4, Homo sapiens, UniProt Q9UJQ4, residues 1-1053)
# Sequence of UniProt Q9UJQ4 (whole entry, looked up): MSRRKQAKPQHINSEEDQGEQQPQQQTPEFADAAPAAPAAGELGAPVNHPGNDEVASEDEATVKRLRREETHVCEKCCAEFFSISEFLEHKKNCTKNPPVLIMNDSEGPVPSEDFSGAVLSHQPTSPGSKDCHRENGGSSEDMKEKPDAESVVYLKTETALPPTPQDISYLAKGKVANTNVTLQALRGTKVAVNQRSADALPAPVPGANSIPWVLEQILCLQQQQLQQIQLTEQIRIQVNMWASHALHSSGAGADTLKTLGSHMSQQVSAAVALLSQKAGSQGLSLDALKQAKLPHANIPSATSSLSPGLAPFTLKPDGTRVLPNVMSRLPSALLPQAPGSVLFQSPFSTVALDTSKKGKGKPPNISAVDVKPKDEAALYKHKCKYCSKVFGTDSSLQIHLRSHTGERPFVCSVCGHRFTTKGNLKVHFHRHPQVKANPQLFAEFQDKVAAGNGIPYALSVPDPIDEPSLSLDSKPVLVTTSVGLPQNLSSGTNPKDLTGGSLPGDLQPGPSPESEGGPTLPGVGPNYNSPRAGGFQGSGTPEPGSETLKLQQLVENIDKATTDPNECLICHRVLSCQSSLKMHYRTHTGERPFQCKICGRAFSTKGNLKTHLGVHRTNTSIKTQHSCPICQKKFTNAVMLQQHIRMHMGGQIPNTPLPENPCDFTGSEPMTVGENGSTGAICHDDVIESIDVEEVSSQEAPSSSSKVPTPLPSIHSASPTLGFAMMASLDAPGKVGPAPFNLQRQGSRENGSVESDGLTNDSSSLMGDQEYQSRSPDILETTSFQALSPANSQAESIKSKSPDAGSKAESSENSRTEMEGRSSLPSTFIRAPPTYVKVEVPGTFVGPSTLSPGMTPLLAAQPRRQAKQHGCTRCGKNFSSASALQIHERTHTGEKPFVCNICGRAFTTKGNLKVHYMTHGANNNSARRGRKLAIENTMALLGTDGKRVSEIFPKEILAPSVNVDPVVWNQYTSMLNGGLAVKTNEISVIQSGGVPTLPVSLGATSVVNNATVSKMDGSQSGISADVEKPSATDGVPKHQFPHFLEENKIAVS
# Notes: 8-mer, flanks averaged, mean of replicates
Strand,E-score
CACATCCA,-0.00305
GGTTGCGA,-0.0981
ATGGACTG,-0.00796
ACCGTCAC,-0.188
CTGACCCC,-0.369
AATCCCAT,0.17

# Sample 3 — technique: protein binding microarray; form: double-stranded DNA, one strand shown; medium: in vitro; tested at: not given; reference: not given; reading: higher = stronger binding
# Target: Histone acetyltransferase KAT6A, both winged helices, GST fusion (KAT6A, Homo sapiens, UniProt Q92794, residues 1-181)
# Notes: 8-mer, flanks averaged, mean of 2 arrays, mostly near background
# Residues (chain): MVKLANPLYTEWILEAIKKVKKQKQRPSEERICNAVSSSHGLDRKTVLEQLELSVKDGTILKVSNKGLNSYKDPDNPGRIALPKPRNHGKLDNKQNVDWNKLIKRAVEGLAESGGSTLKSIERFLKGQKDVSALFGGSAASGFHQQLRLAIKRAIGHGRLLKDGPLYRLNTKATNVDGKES
Strand,E-score
CTTGATCA,-0.00686
CCAGATCC,-0.157
ACTCATCG,0.0718
GTGCGGGA,0.294
AGCTTTAT,-0.133

# Further values, each from its own experiment
Substance,target,assay,test system,setting,how to read,quantity,value
"PhoQ, residues 284 288 289 292 302 303 SSTLSG","PhoP, residues 12 14 15 18 19 LWHCS (Escherichia coli, UniProt P23836)","Sort-seq, refers to: YFP reporter",E. coli,"PhoQ-PhoP variant library, together with: 10 µM Mg2+","reference: high Mg2+ state, higher = stronger signaling",fold induction,14.2
